Results gathered from unrelated publications.
± marks the error that the study gave.
Organism: Trypanosoma brucei

SMILES	test	test system	conditions	how to read	quantity	value
Nc1nccc(C#Cc2cncnc2Nc2ccc(OCc3cccc(F)c3)c(Cl)c2)n1			unit not given	relative to: pEC50 T. brucei minus pTC50 HepG2	selectivity	1.1
COc1ccc(Nc2cnnc3ccc(-c4ccc(N5CCN(C)CC5)cc4)cc23)cc1Cl	cell growth				EC50	200 ± 90 nM
COc1ccc2ncn(-c3cc(O[C@H](C)c4ccccc4C(F)(F)F)c(C(N)=O)s3)c2c1			unit not given	relative to: pEC50 T. brucei minus pTC50 HepG2	selectivity	1.9
CN1CCN(c2ccc(-c3ccc4nncc(Nc5ncccn5)c4c3)cc2)CC1	cell growth				EC50	740 ± 430 nM
NS(=O)(=O)c1ccc(NC=C2C(=O)Nc3ccc4ncsc4c32)cc1			unit not given	relative to: pEC50 T. brucei minus pTC50 HepG2	selectivity	> 0.9
COc1ccc(Nc2cnnc3cc(-c4cnc(N5CCCN(C)CC5)nc4)ccc23)nc1	cell growth				EC50	3300 ± 1300 nM
CNC(=O)c1nn(C)c2c1C(C)(C)Cc1cnc(Nc3ccc(N4CCN(C)CC4)cc3)nc1-2	cell growth				EC50	27 ± 4.3 nM
CN(C)CCNC(=O)c1cccn2c(=O)c3cc4ccccc4cc3nc12	RNA-seq	Lister 427 bloodstream form	2 × EC50, 4 h, log2 FC 1, FDR 0.05	relative to: untreated	differentially expressed genes	289 genes
Cc1ccc(Nc2cnnc3cc(-c4ccc(N5CCN(C)CC5)cc4)ccc23)cn1	cell growth				EC50	2600 ± 930 nM
Cc1cnc(CNC(=O)c2c(=O)c3ccc(N4CCCN(C)CC4)nc3n3c2sc2ccccc23)cn1	RNA-seq	Lister 427 bloodstream form	2 x EC50, 4 h, log2 FC ±1, FDR 0.05	relative to: untreated	differentially expressed genes	357 genes
COc1ccc2[nH]c3c4[nH]c5ccc(OC)cc5c4c4c(c3c2c1)C(=O)NC4=O			unit not given	relative to: pEC50 T. brucei minus pTC50 HepG2	selectivity	0.8
Cc1ccc(Nc2cnnc3cc(-c4cnc(N5CCCN(C)CC5)nc4)ccc23)cn1	cell growth				EC50	9000 ± 3200 nM
COc1cc(NC(=O)c2ccc(Br)cc2)ccc1S(N)(=O)=O	cell viability, MTS	Lister 427	48 h		IC50	< 5000 nM
C[n+]1cc(NC(=O)c2ccc3ccc4ccc(C(=O)Nc5cc6ccccc6[n+](C)c5)nc4c3n2)cc2ccccc21	RNA-seq	Lister 427 bloodstream form	2 × EC50, 4 h, ChIP-seq G4 peak overlap		differentially expressed G4-containing genes	18 genes
Cc1ccc(C(F)(F)F)c(COc2cc(NC(=O)c3cccc(C(=N)N)c3)ccc2N(C)S(=O)(=O)C(F)(F)F)c1	MTS	Lister 427 bloodstream form			growth-inhibitory concentration	200 nM
Cc1ccc(C(=O)Nc2ccc(S(=O)(=O)O)c3cc(S(=O)(=O)O)cc(S(=O)(=O)O)c23)cc1NC(=O)c1cccc(NC(=O)Nc2cccc(C(=O)Nc3cc(C(=O)Nc4ccc(S(=O)(=O)O)c5cc(S(=O)(=O)O)cc(S(=O)(=O)O)c45)ccc3C)c2)c1	parasite growth	Squib 427			EC50	50 nM
COc1cc(Nc2ncc3c(C)nc(-c4cccc(Oc5ccccc5)c4)n3n2)cc(OC)c1OC			unit not given	relative to: pEC50 T. brucei minus pTC50 HepG2	selectivity	> 2.1
CN1CCCN(c2ncc(-c3ccc4nncc(Nc5cnccn5)c4c3)cn2)CC1	cell growth				EC50	4500 ± 640 nM
COc1cc(NC(=O)c2ccc(OC(F)(F)F)cc2)ccc1S(N)(=O)=O	cell viability, MTS	Lister 427	48 h		IC50	> 20000 nM
O=C(NC1CCNCC1)c1[nH]ncc1NC(=O)c1c(Cl)cccc1Cl	cell growth				EC50	314 ± 36 nM
COc1cc(NC(=O)c2cc(C(F)(F)F)cc(C(F)(F)F)c2)ccc1S(N)(=O)=O	cell viability, MTS	Lister 427	48 h		IC50	> 20000 nM
COc1ccc(Nc2cnnc3ccc(-c4cnc(N5CCN(C)CC5)nc4)cc23)cc1Cl	cell growth				EC50	810 ± 180 nM
